Results gathered from unrelated publications.
Numbered parts are unrelated; each lists some results of a single study. Substitutions count along the parent as printed.

Study 1
Target: Fragile X messenger ribonucleoprotein 1, C-terminal low-complexity region (Fmr1, Mus musculus, UniProt P35922)
Method: RNA Bind-n-Seq
Molecule type: RNA
Sample: in vitro
Concentration: 200 nM
Setting: whole 134-nt RNA, ends assumed
Added: 150 mM KCl
Reference: input library
Direction: higher = stronger binding
`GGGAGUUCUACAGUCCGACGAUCGCAGGAAGUAAAAACAAAUGGAAAUGCUUCGGAUAGUGGCAGGGGUGGGGGUUGCUAAGGAAAGGGUGGGAUGGGAGUCGGUAAAGAGUUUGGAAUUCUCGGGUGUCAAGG` has a log2 enrichment of 0.283.
`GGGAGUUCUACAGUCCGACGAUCUGGGAGGUGGAUUUUGUUUAUUUUUUUAGCUCAUUUCCAGGGGUGGGAAUUUUUUUUUAAUAUGUGUCAUGAAUAAAGUUGUGUUUGAAAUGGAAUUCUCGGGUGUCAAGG` has a log2 enrichment of 0.39.
For `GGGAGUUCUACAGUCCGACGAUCGUCCUGUGCUACACAUCGUAUGUACCGAAUCGGGGAAAAAGGGGAAAAAGGAAAAAGGAAAGUAUUAUGUUACGCCGUUCGGAUCUGCACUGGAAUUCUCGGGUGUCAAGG`, the log2 enrichment was -0.211.
`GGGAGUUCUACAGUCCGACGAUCCACAGACAACACAAACCCACACAGACACAGAGGGAAGGGGUUGGGAUGGGGACAGGGUGCACAGCAGGGCGGGGUAGGACCCCAGCCCCUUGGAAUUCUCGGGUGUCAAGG` gave a log2 enrichment of 1.51.
With `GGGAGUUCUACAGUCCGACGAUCCACAGACAACACGCACCCACACAGACACAGAGGGAAGGGGUUGGGAUGGGGACGGGGUGCACAGCAGGGCGGGGUAGGACCCCAGCCCCUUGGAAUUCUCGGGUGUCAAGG` the log2 enrichment was 1.23.
`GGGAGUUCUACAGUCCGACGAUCACAGAGGGUUUGGUGGACGUUAUUCUCUAUCAUCAACCCGAUGACAAAAAGAAGAAUCGGGGGUUCUGCUUCCUUGAAUAUGAGGAUCACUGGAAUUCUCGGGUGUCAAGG` gave a log2 enrichment of -1.19.
For `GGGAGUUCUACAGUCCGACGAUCUAACUUUAGAGGAGGAUCUGAUGGAUAUUGCAGUGGACGUGGAUUUGGGGAUGGCUAUAAUGGGUAUGGAGGAGGACCUGGAGGUGGCAAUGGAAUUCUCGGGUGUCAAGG`, the log2 enrichment was 0.344.
The log2 enrichment of `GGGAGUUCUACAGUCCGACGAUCGCAGGAAGUAAAAACAAAUGGAAAUGCUUCGGAUACUGGCAGGGGUGGGGGUUGCUAAGGAAAGGGUGGGAUGGGAGUGGGUAAAGAGUUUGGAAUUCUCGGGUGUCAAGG` is reported as 0.302.
The log2 enrichment of `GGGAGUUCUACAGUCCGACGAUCCCUCAAGUCCUGUGCUACACAUCGUAUGUACCGAAUCGGUGGGGUGGGUGGGGAAAGUAUUAUGUUACGCCGUUCGGAUCUGCACUUCCAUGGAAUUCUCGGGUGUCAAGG` is reported as 1.33.
For `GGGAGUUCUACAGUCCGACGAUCUCAAGUCCUGUGCUACACAUCGUAUGUACCGAAUCGGGGAAAGGAAAGGAAAGGAAAGUAUUAUGUUACGCCGUUCGGAUCUGCACUUCCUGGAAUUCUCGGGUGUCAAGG`, the log2 enrichment was -0.698.

Study 2
Target: Sal-like protein 4, full length isoform A (SALL4, Homo sapiens, UniProt Q9UJQ4, residues 1-1053)
Chain of UniProt Q9UJQ4 (whole entry, looked up): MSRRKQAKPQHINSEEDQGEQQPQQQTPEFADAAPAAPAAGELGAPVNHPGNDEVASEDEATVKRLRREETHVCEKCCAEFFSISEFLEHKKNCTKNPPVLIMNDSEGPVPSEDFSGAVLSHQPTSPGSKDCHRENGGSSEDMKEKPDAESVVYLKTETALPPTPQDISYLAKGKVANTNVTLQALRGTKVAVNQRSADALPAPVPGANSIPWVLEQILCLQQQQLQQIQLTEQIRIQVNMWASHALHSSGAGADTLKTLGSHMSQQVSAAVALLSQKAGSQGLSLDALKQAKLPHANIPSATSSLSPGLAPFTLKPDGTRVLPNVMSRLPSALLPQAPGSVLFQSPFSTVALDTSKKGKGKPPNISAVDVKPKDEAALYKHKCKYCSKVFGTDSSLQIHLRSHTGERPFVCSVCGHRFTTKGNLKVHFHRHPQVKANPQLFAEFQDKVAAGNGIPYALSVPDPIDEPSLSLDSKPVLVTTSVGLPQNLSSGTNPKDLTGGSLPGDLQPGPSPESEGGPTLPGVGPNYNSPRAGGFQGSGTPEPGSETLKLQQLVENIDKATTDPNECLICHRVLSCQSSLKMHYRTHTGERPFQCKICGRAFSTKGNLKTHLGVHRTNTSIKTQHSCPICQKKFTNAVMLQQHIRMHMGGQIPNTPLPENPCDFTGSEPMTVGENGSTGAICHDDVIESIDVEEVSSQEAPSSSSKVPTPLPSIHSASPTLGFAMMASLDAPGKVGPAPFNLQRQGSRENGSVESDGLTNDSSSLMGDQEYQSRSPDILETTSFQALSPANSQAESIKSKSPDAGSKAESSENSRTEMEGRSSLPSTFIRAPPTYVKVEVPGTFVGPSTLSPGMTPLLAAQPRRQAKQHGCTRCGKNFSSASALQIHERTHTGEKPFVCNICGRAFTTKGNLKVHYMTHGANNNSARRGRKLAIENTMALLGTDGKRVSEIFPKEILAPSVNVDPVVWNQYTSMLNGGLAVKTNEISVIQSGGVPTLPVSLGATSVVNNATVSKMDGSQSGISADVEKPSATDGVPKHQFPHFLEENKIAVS
Method: universal PBM
Molecule type: double-stranded DNA, one strand shown
Sample: in vitro
Concentration: 600 nM
Setting: 8-mer, flanks averaged, mean of replicates
Direction: higher = stronger binding
The E-score of `AAGCATTA` is reported as 0.228.
`CAAGAAGA` gave an E-score of 0.0583.
`GCGCGCCA` gave an E-score of -0.127.
With `AAGCCAGG` the E-score was -0.325.
`GCCTAGGA` has an E-score of -0.175.
`CCAGAGCG` has an E-score of -0.336.
With `GGAAACGA` the E-score was 0.0699.
`GGGATGAC` gave an E-score of -0.178.
`ACCCGCGA` gave an E-score of -0.208.
`ACTGCAGC` gave an E-score of -0.0962.
With `CAACGACC` the E-score was -0.211.
The E-score of `ACACCGAG` is reported as -0.0501.
With `GTACTCTA` the E-score was 0.0398.
The E-score of `GTGCCTGA` is reported as -0.208.
With `GTCACGAC` the E-score was 0.00577.
For `ATTAGGGG`, the E-score was -0.0559.
The E-score of `ACCCACCA` is reported as -0.151.
For `ATCGTATC`, the E-score was 0.121.

Study 3
Target: RNA binding protein fox-1 homolog 2, RRM domain, GST-SBP tag (RBFOX2, Homo sapiens, UniProt O43251-10, residues 100-194)
Method: RNA Bind-n-Seq
Molecule type: RNA
Sample: in vitro
Concentration: 365 nM
Setting: natural RNA segment, single round, ends assumed
Reference: no-protein control
Direction: higher = stronger binding
Residues (chain): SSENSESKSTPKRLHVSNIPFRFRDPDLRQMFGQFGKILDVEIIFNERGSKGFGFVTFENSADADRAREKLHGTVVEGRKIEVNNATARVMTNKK
For `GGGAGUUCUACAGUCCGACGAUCGACAUCUUCAAGGGUAGAACUAAUCUGAAACCCCAUUCAGCCUAUUCCAGAAUGGGGAUAGGCUGAAACCCCCUUCCAGCCUCUGGAAGACACUGGCCUGCAUCAGUUAGUGGAAUUCUCGGGUGCCAA`, “RBNS enrichment (R)” read 0.619.
`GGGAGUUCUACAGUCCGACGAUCCGGGCUCUUCCCAGCCAACUAUGUGGAGCUGCGGCAGUAGGGCUGCCACCCAGAGCCUACCGGCACCAGCACAGGGUUCACACUACAGAGCAUCUGCGUGUGUUUGAGUUUGGAAUUCUCGGGUGCCAA`: “RBNS enrichment (R)” 0.313.
For `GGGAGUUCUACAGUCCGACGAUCCCCUCCCACCUGGCAUGGUAAGGGGGUAAGGGACGCUCAGGGAAGAGGUGCAUUCUCCGACCUCUGCCUCAGGCCUGAGGACGCCCACUGGGAGCUGGGGCAUUUCCAUCUGGAAUUCUCGGGUGCCAA`, “RBNS enrichment (R)” read 3.05.
Under “RBNS enrichment (R)”, `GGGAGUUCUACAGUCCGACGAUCAAUGGCUGCUGUAUAUUUACAAUAUGGAAUUCUGAGUUAAGUACCGCCCUUCAUACUGGGAACAGAAUGUAUGUAACCCAUGUCAAUCAGAUGCAGGUGGUACCCACACGUGGAAUUCUCGGGUGCCAA` is recorded as 1.73.
For `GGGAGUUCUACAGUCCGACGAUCAGUUCCCCCUUCCUGAGAGACUCUGUCUGGGCCAGAAGCCAUUCAUUGAAAGGUUGCGAUGGCAACCAGCCUCCAGCCAUGCAGGCCUGUUUUUAGAGAGAUGGGUCUCUUGGAAUUCUCGGGUGCCAA`, “RBNS enrichment (R)” read 0.252.
For `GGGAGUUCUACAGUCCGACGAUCAACAGUAUCUUACUUGUUGCCAUUGAAAAAAGAAUCCAACUUUUCACUUUCAAAAAUGGCUAUAUAUAUAUUUUUUUAAAGUCUCACAAACUUGGUUUAUUUUUCUUACAUGGAAUUCUCGGGUGCCAA`, “RBNS enrichment (R)” read 0.791.
`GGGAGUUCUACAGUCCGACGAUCGCCUCCCACUCCCACACUUCUUUGCCUAUAAAUCUUCCUAGCAGCAAUUUGAGCUACCUGAGGAGGAGGCAGGGCAGAAAGGGCGAGGGCCUGCCUCUGACCUGCCGUGUUGGAAUUCUCGGGUGCCAA`: “RBNS enrichment (R)” 0.82.
`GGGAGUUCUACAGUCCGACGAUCUCUGUCAUGUUUAUUUAUUGGAUUCUCUGCUGCCUGAUCUGUACAUACAUGAUCCCUCGGGUUUUGUUUACAAGGAACCUUGACUGACCAAAAGGCAUUAUAACUCUGACUGGAAUUCUCGGGUGCCAA` — result for “RBNS enrichment (R)”: 0.399.
Under “RBNS enrichment (R)”, `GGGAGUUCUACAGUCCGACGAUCAUGAAGCAAGCACUAAAGUACUGUCCUGAGUUGGGAACAAAGCACUGUGGGCAAGGUCGAUGCAAUGCCUGCACUACAGGCCUGUCUUCUGUGGAUCUCUCUCCUUGGCCUGGAAUUCUCGGGUGCCAA` is recorded as 0.238.

Study 4
Target: CCNB2, cyclin fold, Cln2 fusion (human)
Method: yeast growth competition, sequencing
Sample: yeast
Setting: weak parent motif
Reference: not given
Direction: higher = stronger binding
Starting sequence: SAMHD1 docking peptide (human); ASKSRVQLFKDDP
Under “normalised enrichment score”, `ASKSRVFLFKDDP [Q7F]` is recorded as 0.145.
Under “normalised enrichment score”, `ASKSRSQLFKDDP [V6S]` is recorded as -0.203.
`ASKSRVQLFKRDP [D11R]` — result for “normalised enrichment score”: 0.0788.
`ASKSRVQQFKDDP [L8Q]`: “normalised enrichment score” 0.0914.
Under “normalised enrichment score”, `ASKSRVQLFKKDP [D11K]` is recorded as 0.495.
`ASKSRVQLFVDDP [K10V]`: “normalised enrichment score” -0.231.
For `ASKSRVQAFKDDP [L8A]`, “normalised enrichment score” read 0.14.
`ASKSRVVLFKDDP [Q7V]` — result for “normalised enrichment score”: 0.0468.
`ASKSRVGLFKDDP [Q7G]`: “normalised enrichment score” 0.287.
`ASKSRVLLFKDDP [Q7L]`: “normalised enrichment score” -0.169.
`ASKSRVQKFKDDP [L8K]`: “normalised enrichment score” 0.432.
For `ASGSRVQLFKDDP [K3G]`, “normalised enrichment score” read 0.0129.
For `ASKSRVQLFKVDP [D11V]`, “normalised enrichment score” read 0.278.
For `AFKSRVQLFKDDP [S2F]`, “normalised enrichment score” read 0.625.
`AGKSRVQLFKDDP [S2G]` — result for “normalised enrichment score”: 0.0678.
For `ASKSRWQLFKDDP [V6W]`, “normalised enrichment score” read -0.24.
`ASKSRVQLFDDDP [K10D]` — result for “normalised enrichment score”: 0.0162.
For `ASKSRVQLFEDDP [K10E]`, “normalised enrichment score” read -0.0156.
For `ASKSRVQLVKDDP [F9V]`, “normalised enrichment score” read 0.742.
Under “normalised enrichment score”, `ASKSRVQCFKDDP [L8C]` is recorded as 0.328.

A few entries again (study 2):
The E-score of `ACCCACCA` is reported as -0.151.
The E-score of `AAGCATTA` is reported as 0.228.
With `GTCACGAC` the E-score was 0.00577.
With `GTACTCTA` the E-score was 0.0398.
`ACTGCAGC` gave an E-score of -0.0962.
`GCGCGCCA` gave an E-score of -0.127.
